# Published values gathered from unrelated publications.
# Protocols differ between the studies behind these lines.
Molecule,tested on,test,test system,setting,how to read,quantity,value
LTQYNRYLALYNKYK,human CD4 T cells,AIM,peptide,,,responding donors,8%
CCCC[C@@H](C=O)NC(=O)[C@H](CC(C)C)NC(=O)OCc1ccccc1,"Replicase polyprotein 1ab, main protease (rep, Severe acute respiratory syndrome coronavirus 2, UniProt P0DTD1)","reporter gene (Gaussia luciferase), inhibitor",,20 µM,,inhibition,4.19%
Nc1ncnc2c([C@@H]3N[C@H](CO)[C@@H](O)[C@H]3O)c[nH]c12,Chikungunya virus,viral replication,"HeLa, AF 15561",12.5 µM,,inhibition,7.1%
AEIRASANL,,AIM,"peptide, CD8+ T cells from PBMC, human donors",,reference: positive over tested donors,frequency of responding donors,20%
CC[C@H](C)[C@H](NC(=O)[C@H](CC(C)C)NC(=O)[C@H](Cc1c[nH]c2ccccc12)NC(=O)[C@H](CCC(N)=O)NC(=O)[C@@H](NC(=O)[C@H](Cc1ccccc1)NC(=O)[C@H](C)NC(=O)[C@H](CCCCNC(=O)COCCOCCNC(=O)COCCOCCNC(=O)CC[C@H](NC(=O)CCCCCCCCCCCCCCCCCCC(=O)O)C(=O)O)NC(=O)[C@H](CCC(N)=O)NC(=O)[C@H](C)NC(=O)[C@@H](NC(=O)[C@H](CCCCN)NC(=O)[C@H](CC(=O)O)NC(=O)[C@H](CC(C)C)NC(=O)C(C)(C)NC(=O)[C@@H](NC(=O)[C@H](CO)NC(=O)[C@H](Cc1ccc(O)cc1)NC(=O)[C@H](CC(=O)O)NC(=O)[C@H](CO)NC(=O)[C@@H](NC(=O)[C@H](Cc1ccccc1)NC(=O)[C@@H](NC(=O)CNC(=O)[C@H](CCC(=O)O)NC(=O)C(C)(C)NC(=O)[C@@H](N)Cc1ccc(O)cc1)[C@@H](C)O)[C@@H](C)O)[C@@H](C)CC)[C@@H](C)CC)C(C)C)C(=O)N[C@@H](C)C(=O)NCC(=O)NCC(=O)N1CCC[C@H]1C(=O)N[C@@H](CO)C(=O)N[C@@H](CO)C(=O)NCC(=O)N[C@@H](C)C(=O)N1CCC[C@H]1C(=O)N1CCC[C@H]1C(=O)N1CCC[C@H]1C(=O)N[C@@H](CO)C(N)=O,,,"healthy subjects, single ascending dose",0.5 mg,,adverse events (lipase increased),8.3%
